Results pooled from the literature.
Each numbered part is a random draw from the data of one study; scales do not carry over between parts.

Block 1
Target: Sal-like protein 4, full length isoform B (SALL4, Homo sapiens, UniProt Q9UJQ4-2, residues 1-616)
Technique: universal PBM
Molecule type: double-stranded DNA, one strand shown
Matrix: in vitro
Concentration: not given
Notes: 8-mer, flanks averaged, mean of replicates
Direction: higher = stronger binding
| Sequence | E-score |
| --- | --- |
| AAATGCAG | -0.0115 |
| ATTGACTC | 0.0333 |
| ATAGGCAC | 0.0862 |
| AGCGTTAT | 0.137 |
| ATTTATAG | 0.355 |
| AACCTTGT | -0.0958 |
| GAGTTCCC | -0.263 |
| TCAGTGCA | -0.0547 |

Block 2
Target: Hepatocyte nuclear factor 3-alpha (Foxa1, Mus musculus, UniProt P35582, residues 1-468, full length assumed)
Chain of UniProt P35582 (whole entry, looked up): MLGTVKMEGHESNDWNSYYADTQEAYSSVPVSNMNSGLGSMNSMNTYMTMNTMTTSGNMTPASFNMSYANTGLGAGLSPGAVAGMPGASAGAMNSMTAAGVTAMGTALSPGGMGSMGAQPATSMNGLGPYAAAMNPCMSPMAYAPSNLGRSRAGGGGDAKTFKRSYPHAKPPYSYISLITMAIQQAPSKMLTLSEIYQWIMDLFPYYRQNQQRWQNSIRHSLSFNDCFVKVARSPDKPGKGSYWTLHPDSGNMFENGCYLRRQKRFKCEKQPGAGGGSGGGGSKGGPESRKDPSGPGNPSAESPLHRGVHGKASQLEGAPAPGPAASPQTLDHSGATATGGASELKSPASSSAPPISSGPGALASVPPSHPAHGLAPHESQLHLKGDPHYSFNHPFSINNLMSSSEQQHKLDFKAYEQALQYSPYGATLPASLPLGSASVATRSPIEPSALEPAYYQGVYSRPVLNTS
Technique: EMSA with sequencing
Molecule type: double-stranded DNA, one strand shown
Matrix: in vitro
Concentration: 10 and 20 nM
Notes: whole designed probe, mean of two concentrations, ends assumed
Relative to: negative control set to 0
Direction: higher = stronger binding
Constant ends, left off below: GTGAGCGGTGCCCATTGATGGGGAAC … TTTCACTGGGATCGTGGGGAC
| Sequence | normalised bound fraction |
| --- | --- |
| AGGTGAAGTCGGCACCCTTGTCTTTGAGCTCACACAGGTGGCTGAGCTAAATAAGTGCTGAAAGGAGCTGGGTGCACTCTCCTGAGTCACCTTTGTTGACTCTGGAAGCACTGTAAACTTGGCATCAGAAGGAGATTATAAAGTGCTTTTGTTCCTAAGCTTTATAAAGTGTGTGTGTATGCATGTGGGTTTC | 0.175 ratio |
| ATAGCATCCTCCCATCAGCTTTGACACTTACTGTCTTAGGATCATGATTTGCTATTCTTTATAAGGATCATTTTTCTCATTATCAGTCAACATGTTTACATTGAAATAGATACACTCTTCTATTTCAGTTATAGTTAGTTGAGACATAATCTCACTTTTGAAACCTTAACTACATATGTTATAAAACCTGTAT | 0.23 ratio |
| GTGGAGTTAATGCAGATTGACGCTGAAGTTCATGTGGGGGCACAGACGTCTGATGGTGCCCAAGAAACCCAGGAGACAAAACTGATGCTTCCCAGAGGACACTGCAGCATCCTCTAAAGCCGCTGTAATTAAGGTATGTGACACATGACCAGGAAGCAGACAGATGGACAAAAATGGAATATCTGGAAATAGA | 0.00489 ratio |
| TCCACAGTAGAAACGAAGGAGATGACAGATACCCCGGCACCAAAACTGACACCAGGTTTTTGTTGCTTCTTCCACTATATAATGGAGAAGTTCTGTTTACTCTATACTGTTAACATGTTGTGCAACTGGCTTAAGGAAACCCAAGAAACTGAATCACATCAAAGGTATGTCAGAGGTATGTGAACCAGAGCAA | 0.366 ratio |
| GTAGCCTTTTTCAGATTTCATCAAATATGGTGTTAGGGGGCCCTCATTTGTCCACAAAAAATATGGTGACAAGGGATGATGACGTGAGTCAGAGTAAACACCATTTACTCACTTTGCGTCACTGTTTATTAGAAGGGCTGTTCGGACTTTCTAGTTGCCAAACTGGACCGTGTATGCTCTCTGAAGAGCGGGC | 0.19 ratio |
| GCGTGAGCCCCCATGCTTGGCCTTACCTTTCTACTTTTATAATTCTGTATGTTATTATTTTATGAACATGAAGAAACTTTAGTAAATGTACTTGTTTACATAGTTATGTGAATAGATTAGATAAACATAAAAGGAGGAGACATACAATGGGGGAAGAAGAAGAAGTCCCCTGTAAGATGTCACTGTCTGGGTT | 0.488 ratio |
| AAGAATTTATACATATGCTTTTCAATATCTGCCCTATTTTTTCTTTTGTATTTAAAAAAAATAAAATTCTAAAGAGAGTAAAAATGTACAATGTAAACATGTTGGTACAAAGAAGCTGAGAAGAGGATTTATTTTATATGTTATGAAGTATGAAATTTAGATATATAAGTAAGGTCTTGGAGAGAAGTTGTAC | 0.331 ratio |
| TTTTTGTCGTGGGACAGTTGTAAACCTTTTTTGGCTTTTCTTTTACCAATAATTCTCATACTGCATGTGCTAAATGTCACAATCCCCCCCTTTCTGTTTACTTTGAAAGTGTGAAAATTTTTATTCTAGTTTTTGTTTAAAATCAGAAAAAAAAAATCTCTTAAAACTATAGCAACGCTCTTCATGTCAGTAA | 0.289 ratio |

Block 3
Target: Replicase polyprotein 1ab, main protease (rep, Severe acute respiratory syndrome coronavirus 2, UniProt P0DTD1)
Effect on: enzyme activity
Action: inhibitor
Concentration: 20 µM
Notes: primary screen
| SMILES | inhibition |
| --- | --- |
| O=C1C(CC[S+]([O-])c2ccccc2)C(=O)N(c2ccccc2)N1c1ccccc1 (stereo not shown) | 28.2% |
| CSc1ccc(C(=O)c2nc(O)[nH]c2C)cc1 | 84.4% |
| CN(C)CCCCC(=O)Nc1ccc(NC(=S)NC(=O)c2ccc(C(C)(C)C)cc2)cc1 | 32.9% |

Block 4
Cell line: HEK-293T
Effect on: pseudovirus infection
Organism: VSV pseudotyped with SARS-CoV-2 spike
Concentration: 10 µM
Time: 16 h
Relative to: vehicle-treated
| SMILES | GFP-positive cells [%] |
| --- | --- |
| C/C(O)=C(\C#N)C(=O)Nc1ccc(C(F)(F)F)cc1 | 40.9 |
| CCCCC(=O)N(Cc1ccc(-c2ccccc2-c2nnn[nH]2)cc1)[C@H](C(=O)O)C(C)C | 82.5 |
| C[C@H](CCC(=O)NCCS(=O)(=O)O)[C@H]1CC[C@H]2[C@@H]3[C@@H](O)C[C@@H]4C[C@H](O)CC[C@]4(C)[C@H]3CC[C@]12C | 86.1 |

Block 5
Target: Replicase polyprotein 1ab, nsp13 helicase (rep, Severe acute respiratory syndrome coronavirus 2, UniProt P0DTD1)
Action: inhibitor
Concentration: 20 µM
| Structure (SMILES) | inhibition |
| --- | --- |
| Nc1ccc(S(=O)(=O)Nc2ccnn2-c2ccccc2)cc1 | -4.27% |
| CN(C)C[C@H](O)Cn1c2ccc(Br)cc2c2cc(Br)ccc21 (racemic) | 13.8% |
| O=C(Nc1ccccc1-c1cn2c(CN3CCNCC3)csc2n1)c1cnc2ccccc2n1 | 71.7% |
| O=C(O)c1cc(O)c2c(c1)[C@H]([C@H]1c3cc(C(=O)O)cc(O)c3C(=O)c3c(O[C@@H]4O[C@H](CO)[C@@H](O)[C@H](O)[C@H]4O)cccc31)c1cccc(O[C@@H]3O[C@H](CO)[C@@H](O)[C@H](O)[C@H]3O)c1C2=O | 12% |
| Cc1c(NC(=O)c2cc3c(s2)CCCC3)cccc1-c1cn(C)c(=O)c(Nc2ccc([C@@H]3C(=O)N(C)CCN3C)cc2)n1 (racemic) | 2.35% |
| C[N+](C)(C)CC[N+]1(C)Cc2c(Cl)c(Cl)c(Cl)c(Cl)c2C1 | 6.11% |
| Oc1nc(-c2ccc(C(F)(F)F)cc2)nc2c1CSCC2 | 3.48% |
| CCOC(=O)/C=C(C)/C=C/C=C(C)/C=C/c1c(C)cc(OC)c(C)c1C | 7.59% |
| NC(=O)C(c1ccccc1)(c1ccccc1)[C@@H]1CCN(CCc2ccc3c(c2)CCO3)C1 | 6.29% |
| O=c1c(-n2ccnn2)c[nH]n1-c1cc(N2CCOCC2)ncn1 | -6.64% |
| Cc1cn2c(N)c(Cl)cc(C(=O)NCC3CCN(CC(C)C)CC3)c2n1 | 8.93% |
| NCc1ccccc1Sc1ccccc1CO | -1.2% |
| CS(=O)(=O)c1ccc([C@@H](CC2CCCC2)C(=O)Nc2nccs2)cc1 | 5.24% |
| CCn1cc(C(=O)O)c(=O)c2cc(F)c(N3CCN(C)CC3)cc21 | 2.08% |
| CN(C)C/C=C/C(=O)Nc1ccc(C(=O)Nc2cccc(Nc3ncc(Cl)c(-c4c[nH]c5ccccc45)n3)c2)cc1 | 13.7% |
| COC(=O)c1c(C)[nH]c(C)c1C(=O)c1ccccc1Cc1ccccc1 | 9.37% |
| CN(C)CCN(C)CCc1ccc(Cl)c(Cl)c1 | 0.99% |
| Nc1ccc2ncnc(NCCc3ccc(Oc4ccccc4)cc3)c2c1 | 7.51% |
| C1CCc2nnnn2CC1 | 2.52% |
| CC1CCc2c(N3CCC(O)CC3)c(F)cc3c(=O)c(C(=O)O)cn1c23 (stereo not shown) | 3% |
| O=C1c2c(O)ccc(O)c2C(=O)c2c(NCCNCCO)ccc(NCCNCCO)c21 | 109% |
| CCOC(=O)c1ncc2[nH]c3ccc(OCc4ccccc4)cc3c2c1COC | 4.46% |
| CC(=O)N(CC(O)CO)c1c(I)c(C(=O)NCCO)c(I)c(C(=O)NCC(O)CO)c1I (stereo not shown) | 2.93% |
| O=C(Nc1cc(C(F)(F)F)ccc1N1CCCCC1)c1ccncc1 | 1.22% |
| CC[N+](CC)(CC(=O)Nc1c(C)cccc1C)Cc1ccccc1 | -5.71% |

Block 6
Target: Interferon regulatory factor 5, full length, phosphomimetic (IRF5, Homo sapiens, UniProt Q13568-2, residues 1-514, S451D/S453D/S456D/S462D)
Technique: protein-binding microarray
Molecule type: double-stranded DNA, one strand shown
Matrix: in vitro
Concentration: 940 nM top
Notes: 60-bp whole probe
Added: salmon DNA 0.4 mg/ml
Relative to: random background probes
Direction: higher = stronger binding
Constant ends, left off below: GCCTAGCAC … GTCTTGATTCGCTTGACGCTGCTG
| Sequence | fitted relative affinity [z-score] |
| --- | --- |
| TTAGGACTGGGACTTGGTTAGTGCTAG | -0.338 |
| CCCTAGTTGTGTCTTGCCATGTGCTAG | 0.371 |
| TCATGTTTAAGAATGTTACTGTGCTAG | 0.163 |
| TGAGATCTCAGTCTCGATTAGTGCTAG | 3.24 |
| GACGGTTTCCTACTGCTGTCGTGCTAG | 1.64 |
| GACGGTACCCTTCTCCTGACGTGCTAG | 0.0923 |
| TTAGAACTGGGTATCGATTAGTGCTAG | 3.45 |
| TTAGGACTGGGGTTTCGGTTCGTGCTA | 5.08 |
